Measurements collected from several papers.
Every numbered part comes from another study and shows a few of its results, in no order. Values joined by “and” are separate records of one study, mostly repeats; a detail may differ.
Chain of UniProt P51956 (whole entry, looked up): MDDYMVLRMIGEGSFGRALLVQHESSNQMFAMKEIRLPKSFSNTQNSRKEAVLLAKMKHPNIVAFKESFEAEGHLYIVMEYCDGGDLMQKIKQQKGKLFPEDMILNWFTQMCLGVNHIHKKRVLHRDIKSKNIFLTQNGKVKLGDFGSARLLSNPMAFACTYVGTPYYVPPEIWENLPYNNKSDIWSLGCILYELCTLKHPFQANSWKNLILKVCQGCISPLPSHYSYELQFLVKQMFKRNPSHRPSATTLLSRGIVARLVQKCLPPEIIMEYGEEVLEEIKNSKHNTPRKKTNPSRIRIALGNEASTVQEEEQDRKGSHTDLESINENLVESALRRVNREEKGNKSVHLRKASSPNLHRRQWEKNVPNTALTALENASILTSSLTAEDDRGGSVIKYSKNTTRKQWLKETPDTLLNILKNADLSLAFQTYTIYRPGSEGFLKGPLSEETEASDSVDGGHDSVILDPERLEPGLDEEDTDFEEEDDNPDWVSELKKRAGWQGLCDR
Chain of UniProt Q15759 (whole entry, looked up): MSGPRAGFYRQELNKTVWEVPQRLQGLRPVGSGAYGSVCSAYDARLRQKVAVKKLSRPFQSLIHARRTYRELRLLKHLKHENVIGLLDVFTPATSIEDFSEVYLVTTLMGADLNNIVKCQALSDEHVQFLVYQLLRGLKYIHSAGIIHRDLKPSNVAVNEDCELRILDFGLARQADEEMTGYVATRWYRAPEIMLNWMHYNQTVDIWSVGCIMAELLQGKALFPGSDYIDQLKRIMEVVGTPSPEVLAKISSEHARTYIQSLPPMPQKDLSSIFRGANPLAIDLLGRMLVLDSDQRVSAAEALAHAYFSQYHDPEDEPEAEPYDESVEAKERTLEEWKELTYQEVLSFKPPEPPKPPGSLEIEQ
Chain of UniProt O75914 (whole entry, looked up): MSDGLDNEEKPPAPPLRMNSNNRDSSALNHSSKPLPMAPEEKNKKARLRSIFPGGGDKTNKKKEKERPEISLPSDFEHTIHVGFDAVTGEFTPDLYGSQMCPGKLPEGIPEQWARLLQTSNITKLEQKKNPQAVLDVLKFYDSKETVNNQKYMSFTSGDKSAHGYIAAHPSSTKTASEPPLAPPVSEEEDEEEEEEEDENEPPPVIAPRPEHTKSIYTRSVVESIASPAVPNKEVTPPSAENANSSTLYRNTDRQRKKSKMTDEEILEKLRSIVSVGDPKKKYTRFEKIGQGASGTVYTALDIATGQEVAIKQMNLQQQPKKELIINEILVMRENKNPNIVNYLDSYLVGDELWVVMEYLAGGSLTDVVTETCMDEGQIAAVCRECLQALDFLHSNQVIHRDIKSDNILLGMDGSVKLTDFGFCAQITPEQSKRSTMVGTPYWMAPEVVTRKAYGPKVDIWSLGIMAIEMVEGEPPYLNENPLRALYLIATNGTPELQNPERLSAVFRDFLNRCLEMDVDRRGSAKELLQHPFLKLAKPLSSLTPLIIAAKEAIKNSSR
Chain of UniProt P29317 (whole entry, looked up): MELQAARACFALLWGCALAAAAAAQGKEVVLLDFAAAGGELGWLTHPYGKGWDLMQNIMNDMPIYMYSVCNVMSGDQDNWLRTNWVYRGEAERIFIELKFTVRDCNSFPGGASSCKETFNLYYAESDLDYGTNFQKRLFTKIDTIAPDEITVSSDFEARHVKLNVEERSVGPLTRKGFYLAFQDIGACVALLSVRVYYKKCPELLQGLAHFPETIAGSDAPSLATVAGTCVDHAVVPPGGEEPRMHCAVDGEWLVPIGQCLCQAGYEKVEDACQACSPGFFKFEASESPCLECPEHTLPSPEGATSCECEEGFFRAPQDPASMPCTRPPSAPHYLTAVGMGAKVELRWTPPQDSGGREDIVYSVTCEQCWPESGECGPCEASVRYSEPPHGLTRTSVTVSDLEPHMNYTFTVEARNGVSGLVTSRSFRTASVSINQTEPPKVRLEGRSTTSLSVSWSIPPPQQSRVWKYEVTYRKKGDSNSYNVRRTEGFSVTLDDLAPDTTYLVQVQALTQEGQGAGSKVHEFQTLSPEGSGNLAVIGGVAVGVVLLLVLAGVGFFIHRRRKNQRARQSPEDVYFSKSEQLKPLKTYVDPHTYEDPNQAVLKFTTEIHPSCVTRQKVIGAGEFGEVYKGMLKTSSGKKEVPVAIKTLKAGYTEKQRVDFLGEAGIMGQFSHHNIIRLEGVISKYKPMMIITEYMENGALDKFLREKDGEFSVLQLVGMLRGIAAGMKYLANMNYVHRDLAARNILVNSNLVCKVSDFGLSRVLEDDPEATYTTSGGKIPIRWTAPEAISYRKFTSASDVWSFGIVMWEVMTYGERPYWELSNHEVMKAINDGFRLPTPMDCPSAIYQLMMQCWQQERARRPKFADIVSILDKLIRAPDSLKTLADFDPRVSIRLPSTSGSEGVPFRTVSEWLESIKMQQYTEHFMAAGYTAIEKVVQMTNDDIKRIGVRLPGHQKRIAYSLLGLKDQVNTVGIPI
Chain of UniProt Q96L34 (whole entry, looked up): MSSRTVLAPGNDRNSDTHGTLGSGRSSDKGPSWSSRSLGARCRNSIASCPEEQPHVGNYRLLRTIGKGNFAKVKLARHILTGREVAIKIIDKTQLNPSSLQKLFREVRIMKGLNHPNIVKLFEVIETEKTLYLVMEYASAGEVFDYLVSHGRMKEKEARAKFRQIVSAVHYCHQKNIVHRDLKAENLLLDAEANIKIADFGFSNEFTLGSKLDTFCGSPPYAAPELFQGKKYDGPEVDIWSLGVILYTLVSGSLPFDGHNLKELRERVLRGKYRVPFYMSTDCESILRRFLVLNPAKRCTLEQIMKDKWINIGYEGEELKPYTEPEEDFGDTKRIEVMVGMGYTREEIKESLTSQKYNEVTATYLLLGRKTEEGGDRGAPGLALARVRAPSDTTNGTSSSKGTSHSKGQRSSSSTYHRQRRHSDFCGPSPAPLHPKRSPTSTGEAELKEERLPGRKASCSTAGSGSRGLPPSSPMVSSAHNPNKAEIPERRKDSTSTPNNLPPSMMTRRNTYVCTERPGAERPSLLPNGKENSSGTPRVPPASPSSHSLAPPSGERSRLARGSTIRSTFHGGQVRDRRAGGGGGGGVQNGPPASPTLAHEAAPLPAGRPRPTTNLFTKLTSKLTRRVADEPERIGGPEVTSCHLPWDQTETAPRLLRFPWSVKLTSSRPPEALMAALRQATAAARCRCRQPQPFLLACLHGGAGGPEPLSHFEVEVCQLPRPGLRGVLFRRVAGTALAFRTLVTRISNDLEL
Chain of UniProt O75676 (whole entry, looked up): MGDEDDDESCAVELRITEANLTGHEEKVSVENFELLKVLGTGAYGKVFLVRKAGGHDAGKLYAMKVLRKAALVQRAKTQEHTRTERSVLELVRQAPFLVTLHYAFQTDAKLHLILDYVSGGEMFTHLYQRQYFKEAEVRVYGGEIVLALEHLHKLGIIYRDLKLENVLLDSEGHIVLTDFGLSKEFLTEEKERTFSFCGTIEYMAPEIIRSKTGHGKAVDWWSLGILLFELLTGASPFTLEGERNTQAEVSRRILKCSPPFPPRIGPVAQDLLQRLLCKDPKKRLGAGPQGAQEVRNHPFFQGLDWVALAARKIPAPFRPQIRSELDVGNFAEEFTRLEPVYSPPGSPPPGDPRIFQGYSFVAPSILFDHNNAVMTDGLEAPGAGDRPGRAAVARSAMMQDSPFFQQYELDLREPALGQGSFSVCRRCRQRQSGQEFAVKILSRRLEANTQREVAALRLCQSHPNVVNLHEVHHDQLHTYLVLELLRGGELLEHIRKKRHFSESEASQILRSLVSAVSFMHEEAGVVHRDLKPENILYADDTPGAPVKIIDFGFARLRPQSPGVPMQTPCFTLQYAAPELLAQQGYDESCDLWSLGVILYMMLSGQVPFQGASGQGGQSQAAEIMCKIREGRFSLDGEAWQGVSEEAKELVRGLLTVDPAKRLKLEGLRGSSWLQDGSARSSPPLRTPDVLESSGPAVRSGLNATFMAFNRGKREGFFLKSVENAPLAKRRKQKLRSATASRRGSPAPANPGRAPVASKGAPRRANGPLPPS
Chain of UniProt Q8N568 (whole entry, looked up): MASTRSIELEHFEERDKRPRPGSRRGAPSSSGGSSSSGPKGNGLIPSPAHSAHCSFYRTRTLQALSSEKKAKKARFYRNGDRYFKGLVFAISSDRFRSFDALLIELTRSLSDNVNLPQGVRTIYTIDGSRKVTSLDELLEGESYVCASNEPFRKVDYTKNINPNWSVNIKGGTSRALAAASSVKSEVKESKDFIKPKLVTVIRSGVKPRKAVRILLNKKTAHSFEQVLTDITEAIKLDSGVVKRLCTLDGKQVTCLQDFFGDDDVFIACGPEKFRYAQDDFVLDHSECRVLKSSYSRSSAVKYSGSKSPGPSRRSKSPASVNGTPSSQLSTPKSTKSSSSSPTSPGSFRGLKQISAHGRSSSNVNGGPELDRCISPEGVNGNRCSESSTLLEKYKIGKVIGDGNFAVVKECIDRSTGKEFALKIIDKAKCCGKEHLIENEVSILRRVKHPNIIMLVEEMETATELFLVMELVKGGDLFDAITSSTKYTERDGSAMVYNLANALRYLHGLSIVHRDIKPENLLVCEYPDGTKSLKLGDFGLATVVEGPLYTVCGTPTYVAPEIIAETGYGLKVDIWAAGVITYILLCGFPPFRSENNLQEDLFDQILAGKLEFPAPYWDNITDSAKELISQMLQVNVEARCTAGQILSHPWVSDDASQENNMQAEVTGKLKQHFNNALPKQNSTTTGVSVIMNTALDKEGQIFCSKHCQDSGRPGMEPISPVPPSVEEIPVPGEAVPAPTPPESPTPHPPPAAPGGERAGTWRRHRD
Chain of UniProt P06493 (whole entry, looked up): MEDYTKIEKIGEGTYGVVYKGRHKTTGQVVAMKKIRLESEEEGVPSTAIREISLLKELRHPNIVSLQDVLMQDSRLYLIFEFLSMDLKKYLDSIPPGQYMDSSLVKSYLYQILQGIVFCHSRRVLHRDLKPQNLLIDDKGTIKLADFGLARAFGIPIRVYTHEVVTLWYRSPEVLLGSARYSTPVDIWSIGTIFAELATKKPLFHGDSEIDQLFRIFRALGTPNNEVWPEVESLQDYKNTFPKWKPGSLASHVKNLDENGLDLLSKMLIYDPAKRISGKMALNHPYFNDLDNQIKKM

Series 1
SMILES: c1ccc(N2CCN(Cc3nc4ccccc4[nH]3)CC2)nc1
Tested at: 1 µM
| target | read-out | technique | remaining binding [%] |
| --- | --- | --- | --- |
| Insulin receptor-related protein (INSRR, Homo sapiens, UniProt P14616) | binding | competition with immobilised ligand | 97 |
| Serine/threonine-protein kinase SIK3 (SIK3, Homo sapiens, UniProt Q9Y2K2) | binding | competition with immobilised ligand | 91 |
| Ephrin type-A receptor 2 (EPHA2, Homo sapiens, UniProt P29317) | cell-free assay | competition with immobilised ligand | 100 |
| cAMP-dependent protein kinase catalytic subunit beta (PRKACB, Homo sapiens, UniProt P22694) | cell-free assay | competition with immobilised ligand | 93 |
| Cyclin-dependent kinase 11B (CDK11B, Homo sapiens, UniProt P21127) | cell-free assay | competition with immobilised ligand | 100 |
| Serine/threonine-protein kinase D2 (PRKD2, Homo sapiens, UniProt Q9BZL6) | binding | competition with immobilised ligand | 91 |
| Serine/threonine-protein kinase PRP4 homolog (PRPF4B, Homo sapiens, UniProt Q13523) | cell-free assay | competition with immobilised ligand | 57 |
| Tyrosine-protein kinase ABL1, phosphorylated (ABL1, Homo sapiens, UniProt P00519, F317I) | binding |  | 100 |

Series 2
Cell line: HaCaT
Tested at: 100 µM
Time: 18 h
| SMILES | viability |
| --- | --- |
| Clc1ccc(C(Cn2ccnc2)OCc2c(Cl)cccc2Cl)c(Cl)c1 (stereo not shown) | 87.3% |
| C#C[C@]1(OC(C)=O)CC[C@H]2[C@@H]3CCC4=C[C@@H](OC(C)=O)CC[C@@H]4[C@H]3CC[C@@]21C | 54.2% |
| COc1cccc2c1C(=O)c1c(O)c3c(c(O)c1C2=O)C[C@@](O)(C(=O)CO)C[C@@H]3O[C@H]1C[C@H](N)[C@H](O)[C@H](C)O1 | 55.9% |
| C[C@@H](O)[C@H]1C(=O)N2C(C(=O)O)=C(SCCN=CN)C[C@H]12 | 115% |
| CCCCCNC(=N)N/N=C/c1c[nH]c2ccc(OC)cc12 | 18.3% |
| Nc1ccc(S(=O)(=O)Nc2ccc(Cl)nn2)cc1 | 74.3% |
| Cc1cc(O)cc(C)c1Cl | 87.1% |

Series 3
SMILES: CN(C)CCCn1cc(C2=C(c3c[nH]c4ccccc34)C(=O)NC2=O)c2ccccc21
Read-out: enzyme activity
Mode: inhibitor
Tested at: 0.5 µM
Reference: control
| target | remaining activity [%] |
| --- | --- |
| Mitogen-activated protein kinase 14 (MAPK14, Homo sapiens, UniProt Q16539) | 90.7 |
| Serine/threonine-protein kinase PAK 3 (PAK3, Homo sapiens, UniProt O75914) | 92.1 |
| Misshapen-like kinase 1 (MINK1, Homo sapiens, UniProt Q8N4C8) | 92.1 |
| Serine/threonine-protein kinase DCLK2 (DCLK2, Homo sapiens, UniProt Q8N568) | 95 |
| Mitogen-activated protein kinase 11 (MAPK11, Homo sapiens, UniProt Q15759) | 96.1 |
| MAP/microtubule affinity-regulating kinase 4 (MARK4, Homo sapiens, UniProt Q96L34) | 66.9 |
| Mitogen-activated protein kinase 1 (MAPK1, Homo sapiens, UniProt P28482) | 100 |
| Cyclin-dependent kinase 1, with cyclin A (CDK1, Homo sapiens, UniProt P06493) | 100 |
| Dual specificity mitogen-activated protein kinase kinase 1 (MAP2K1, Homo sapiens, UniProt Q02750) | 83.6 |
| Serine/threonine-protein kinase Nek3 (NEK3, Homo sapiens, UniProt P51956) | 110 |
| Calcium/calmodulin-dependent protein kinase type 1B (PNCK, Homo sapiens, UniProt Q6P2M8) | 106 |
| Tyrosine-protein kinase TXK (TXK, Homo sapiens, UniProt P42681) | 107 |
| Serine/threonine-protein kinase PLK3 (PLK3, Homo sapiens, UniProt Q9H4B4) | 94.9 |
| Ribosomal protein S6 kinase alpha-4 (RPS6KA4, Homo sapiens, UniProt O75676) | 34.9 |

Series 4
Cell line: mouse MPNST tumor cells
Technique: high-content nuclear imaging
Refers to: cell number
Tested at: 10 µM
Time: 12 h
Notes: mean of 2 replicates
Reference: plate mean
Reading: higher = more cells
| SMILES | nuclei count |
| --- | --- |
| CNC1CCC(N(Cc2cc(-c3ccncc3)ccc2OC)C(=O)c2sc3c(F)ccc(F)c3c2Cl)CC1 (stereo not shown) | -5.43 z-score |
| CCOc1ccc(Nc2nc(-c3c(C)nc4ccccn34)cs2)cc1 | -3.08 z-score |
| COc1ccc([C@@H]2Sc3ccccc3N(CCN(C)C)C(=O)[C@@H]2OC(C)=O)cc1 | 3.61 z-score and 3.18 z-score |
| CC(C)[C@H](CO)Nc1nc(Nc2cccc(Cl)c2)c2ncn(C(C)C)c2n1 | -1.37 z-score |
| Cc1cc(F)c(Nc2ncnc3cc(OCc4ccccc4)ccc23)cc1O | 3.34 z-score |

For quick reference, copied from above (series 3):
| target | remaining activity [%] |
| --- | --- |
| Serine/threonine-protein kinase DCLK2 (DCLK2, Homo sapiens, UniProt Q8N568) | 95 |
| Serine/threonine-protein kinase PAK 3 (PAK3, Homo sapiens, UniProt O75914) | 92.1 |
| Serine/threonine-protein kinase Nek3 (NEK3, Homo sapiens, UniProt P51956) | 110 |
